# Measurements of several laboratories.
# Numbered parts are unrelated; each lists some results of a single study. Changes are numbered by the printed parent chain.

# Block 1 — method: RNA Bind-n-Seq; molecule type: RNA; medium: in vitro; concentration: 365 nM; relative to: no-protein control; reading: higher = stronger binding
# Target: RNA binding protein fox-1 homolog 2, RRM domain, GST-SBP tag (RBFOX2, Homo sapiens, UniProt O43251-10, residues 100-194)
# Setting: natural RNA segment, single round, ends assumed
# All sequences stand within: GGGAGUUCUACAGUCCGACGAUC … UGGAAUUCUCGGGUGCCAA
# Target sequence (chain): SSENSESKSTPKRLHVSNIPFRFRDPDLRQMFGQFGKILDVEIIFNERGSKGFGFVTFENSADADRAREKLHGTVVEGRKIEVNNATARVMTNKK
Sequence,RBNS enrichment (R)
UUUCAUACGGUGAAUAUGCAUUUGGUCUGUACUGAUCAUGGAAUAAACACAUCUCUCUUUUUUUAAUCUGGCGUCUCCCUGACAUUUCUUUGUGAACCAACUGUUGCCUA,0.456
UUUCUUCCCCCAACUUCUUGCAUGUUGAAGAUAUUUGAGCUAUUUUUCAUCUAAAAGAGUAAGGUAUUAGGCCCUUUUGUGGGAGCCCCAUGUUUUGUUUUUCUGAGUUG,12.3
CGGUUGUAAAGAGGUUGUGCAGUUGCAAGGGUGGAGCCUUCUGGGUCCCUUGAGCCAAAGGCCUACCAUCUGCUCGAGGAGUCCCCAUGUCCCUUGGCUGCUCUCGGGUC,0.587
UCUCCUUUGGGAUACUUAUGAACCUCUCACUAAUGUCCUGUGGAGAACAUUUUGGGAAACACUAUGUUAGAUAGUUCUUUAAGGAGACAAAACGGUAAUGAACAGAUAGC,0.71
AGGAUGGCUGUUUAUAAUUUGGGGAGAGAUAGGGUGGGAGGCAGGGCAAUGCAGGAUCCAAAUCCUCAUCUUACUUUCCCGACCUUAAGGAUGUAGCUGCUGCUUGUCCU,0.652
GUUACUUGUUCAUUCAAAUCUUGCACCCCCCCCCCCAAGGUUCUCAUUGUUGGAGAGGGUGGGGGAAAGGUUCAAACAUUGUCAAUUUUUCUGACUUUUUAAAUCAUCAU,0.675
CCUCUCCCAGCGUUUCUCCGGUUUGCCAAUCCUCUUAAGUAUUCCUGUCUCCAAAGGACCGGCUCUCCAUGGCUCCUGCGCCUCGUGCUUUCCGCGUACAGAAGUGCUUG,0.328
ACUUGAACCAGAUUAUAGAUUUAAAAGUAUAUGACAUGUAUUUUGUAUUUAAAACUAGAAUAGCCAGUAUUUAUGUUUUUUAUAAAACUGUGCAAUACGAAUUAUGCAAU,0.786

# Block 2 — method: protein-binding microarray; molecule type: double-stranded DNA, one strand shown; medium: in vitro; concentration: 2200 nM top; setting: 60-bp whole probe; added: salmon DNA 0.4 mg/ml; relative to: random background probes; reading: higher = stronger binding; all sequences stand within: GCCTAGCAC … GTCTTGATTCGCTTGACGCTGCTG
# Target: Interferon regulatory factor 7, full length, phosphomimetic (IRF7, Homo sapiens, UniProt Q92985, residues 1-503, S471D/S472D/S475D/S476D/S477D/S483D/S484D/S487D)
# Construct (chain): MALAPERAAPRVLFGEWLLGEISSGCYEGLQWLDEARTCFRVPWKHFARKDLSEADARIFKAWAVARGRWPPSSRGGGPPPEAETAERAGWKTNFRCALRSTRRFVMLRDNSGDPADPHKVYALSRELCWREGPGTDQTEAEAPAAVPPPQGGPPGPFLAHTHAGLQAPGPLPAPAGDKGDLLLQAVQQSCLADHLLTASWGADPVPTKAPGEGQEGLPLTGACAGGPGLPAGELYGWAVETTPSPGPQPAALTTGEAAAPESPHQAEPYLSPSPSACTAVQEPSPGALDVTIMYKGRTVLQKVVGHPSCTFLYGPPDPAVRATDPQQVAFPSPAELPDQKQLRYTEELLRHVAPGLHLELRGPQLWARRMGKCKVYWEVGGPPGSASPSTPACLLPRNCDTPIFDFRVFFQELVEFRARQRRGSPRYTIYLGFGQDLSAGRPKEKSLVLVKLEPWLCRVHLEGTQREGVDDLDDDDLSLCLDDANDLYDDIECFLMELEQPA
Sequence,fitted relative affinity
TCAGTTTTCCTTATTGCACTGTGCTAG,3.01 z-score
TTAGGTCTCGGTTTCGGTTTGTGCTAG,12.5 z-score
TTATGTTTCGGGACTGGGTTAGTGCTA,3.14 z-score
GACGGACTGGCTTTCGGGACGTGCTAG,1.42 z-score
GACGGTTTCGACACTGAGGACGTGCTA,2.72 z-score
TCAGAATTAGGTTTCACACTGTGCTAG,1.21 z-score
GACGGTATCCTTCCCCTGACGTGCTAG,0.95 z-score
CACGGTATCGGGTTTCGGGACGTGCTA,1.61 z-score
GTCGGTTTCGACTATCGGGACGTGCTA,4.76 z-score
TCCTCTCTCTTTCCACTTGTGTGCTAG,3.94 z-score
AAACTCGTGTTTTTCTCCTAGTGCTAG,1.36 z-score
TCATCTTTATGCACTCTTACTGTGCTA,1.16 z-score
GGCGATTTCGGGACTGGAGACGTGCTA,0.976 z-score
GACGATATAAGTATCGAGACGTGCTAG,0.0692 z-score
GACGGACTGGGACTGGTGACGTGCTAG,-0.737 z-score
TTAGAACTGGGGTATCGTTTAGTGCTA,0.159 z-score
GACGGACTGGGGTTTCGGTACGTGCTA,1.09 z-score
TCTGTTTTTGCTTTCTTTTTGTGCTAG,7.32 z-score
TTAGGTCCCCTTCTCCTTTAGTGCTAG,1.32 z-score

# Block 3 — target: CCNB2, cyclin fold, Cln2 fusion (human); method: yeast growth competition, sequencing; medium: yeast; setting: weak parent motif; relative to: not given; reading: higher = stronger binding
# Parent: REPIN1 docking peptide (human); QSFRGWVALVLHL; partner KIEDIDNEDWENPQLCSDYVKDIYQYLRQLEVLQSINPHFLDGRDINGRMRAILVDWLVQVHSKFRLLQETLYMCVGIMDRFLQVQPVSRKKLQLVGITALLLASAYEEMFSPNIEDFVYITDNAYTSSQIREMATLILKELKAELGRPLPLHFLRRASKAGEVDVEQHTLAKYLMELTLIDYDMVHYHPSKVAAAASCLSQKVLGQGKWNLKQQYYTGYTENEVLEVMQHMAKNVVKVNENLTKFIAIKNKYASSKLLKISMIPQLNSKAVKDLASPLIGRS
Substitution,normalised enrichment score
L9A,-0.34
H12A,0.293
Q1A,-0.124
L13A,-0.0176
F3A,0.896
W6A,-0.139

# Block 4 — method: protein binding microarray; molecule type: double-stranded DNA, one strand shown; medium: in vitro; concentration: not given; relative to: not given; reading: higher = stronger binding
# Target: Histone acetyltransferase KAT6A, winged helix 1, GST fusion (KAT6A, Homo sapiens, UniProt Q92794, residues 1-85)
# Setting: 8-mer, flanks averaged, mean of 2 arrays, mostly near background
# Residues (chain): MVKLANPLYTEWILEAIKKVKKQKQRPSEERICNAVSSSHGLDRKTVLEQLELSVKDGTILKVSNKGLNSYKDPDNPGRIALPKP
Sequence,E-score
TCTGATCA,-0.168
AAATTCGA,-0.203
AATTTGAG,-0.187
CCGTAGTC,0.321
ATCGGATA,0.0565
ACCCAGGT,-0.0979
CCGGGTGC,0.329
TCTCCCCA,-0.233
GGGGCCCC,-0.0538
CCCAGCGA,-0.0881
CCCCAGCC,-0.203
AAAAACCC,-0.0842
CGCATGTA,0.222
CTCTAGCC,-0.0148
AGGCCTTG,-0.2
CGAAGGCG,0.259
GCGCAGAC,0.308
CACAGGCG,0.117
ATCGCACA,-0.0713
AACGGCCT,0.208
ACGTTCAG,-0.144
AGACTGAC,-0.0657
GCTACTCC,0.0199
ACCTTTCA,-0.162
CAGAGGAA,-0.247

# Block 5 — method: RNA Bind-n-Seq; molecule type: RNA; medium: in vitro; concentration: not given; setting: RNA with constant flanks, ends assumed; relative to: input RNA pool; reading: higher = stronger binding
# Target: RING finger protein unkempt homolog, zinc fingers 1-6, GST-SBP tag (UNK, Homo sapiens, UniProt Q9C0B0, residues 30-357)
# All sequences stand within: GGGAGUUCUACAGUCCGACGAUC … CAACAGAGGAUUGAGCAUCA
# Construct (chain): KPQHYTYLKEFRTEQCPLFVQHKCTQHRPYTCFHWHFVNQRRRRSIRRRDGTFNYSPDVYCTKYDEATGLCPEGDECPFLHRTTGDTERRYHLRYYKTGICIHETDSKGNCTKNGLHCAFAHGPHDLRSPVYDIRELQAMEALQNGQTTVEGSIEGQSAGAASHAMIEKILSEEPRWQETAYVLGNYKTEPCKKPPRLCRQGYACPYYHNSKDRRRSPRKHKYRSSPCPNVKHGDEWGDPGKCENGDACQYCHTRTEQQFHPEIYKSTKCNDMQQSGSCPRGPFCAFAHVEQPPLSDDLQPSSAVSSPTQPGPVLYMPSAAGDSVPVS
Sequence,bound/input enrichment [ratio]
AAGCCUGGAAAACCCAAGGGCAAGAAAAAGCUUUCUUCUGUUCGUCAAAAAUUUGAUCACCGGUUCCAGCCUCAGAACCCCCUCUCUGGAGCUCAGCAGUUCGUGGCAAAGGAGCCCCAG,0.166
UCGUUUGGGUCACCAGGCUUCCCAGUGAAUAACAGCAGCAGCAGUACUGUUCAGAACUUCCGUUUUAAAACAAGCCCUGGACUUGCCACUCCUCCUUCCGGAAGCACUUCAGUAUUUGGA,0.179
GGUCGGCUCUACCAAGUAGAAUAUGCUUUUAAGGCUAUUAACCAGGGUGGCCUUACAUCAGCCGCUGUCAGAGGGAAAGACUGUGCAGUAAUUGUCACACAGAAGAAAGUACCUGACAAA,0.192
GGCAUCGCGGGCUGUGGAACCCUACUAAUAUUGGAUCCAGAUGAAGCUGGGCUAAGGCUUUUCCGAAGCUUUGACUGGAAUGAUGGUUUGUUUGAUGUGACUUGGAGUGAGAACAACGAA,0.134
UCAUGGAACUUAUGUGUCAAAACAAAGGAACGGGCAGACUGUCCAUCCCAAGCCAGUUCAAUCCGAUGUAAAUUCAUACUGUUUUAAUUUUUUAUGCAAUCUGAUGAGUAGAUGGGCUCA,0.31
CAUGGACAGCAAGCCUUGGGUAACCGGACCAGGCCAAGGGUCUACAAUUCUCCAACAAACCGCUCCUCUACCCAGGAUUCUAUGGAGGUUGGCCACAGUCACCACUCCAUGACAUCCCUG,0.0439
CUCUGUCCUGAGUGUGAGAAUCCUGAAACAGAUCUGCAUGUCAAUCCAAAGAAGCAAACAACCGGUAAUUCUUGUAAAGCCUGUGGGUACCGAGGCAUGCUUGACACACAUCAUAAACUC,0.187
GAGGAUGCUGCCUCCUACGUUAGAAAGGUUAUUCCAAAAGAUUAUAAGACAAUGGCUGCUUCCGCCAAGGCCAUCGAAAAGAAUGUGCUGUUUUCACACCUUGAUGAUAACGAGAGAAGU,1.74

# Some of these lines once more (block 5):
Sequence,bound/input enrichment [ratio]
CUCUGUCCUGAGUGUGAGAAUCCUGAAACAGAUCUGCAUGUCAAUCCAAAGAAGCAAACAACCGGUAAUUCUUGUAAAGCCUGUGGGUACCGAGGCAUGCUUGACACACAUCAUAAACUC,0.187
AAGCCUGGAAAACCCAAGGGCAAGAAAAAGCUUUCUUCUGUUCGUCAAAAAUUUGAUCACCGGUUCCAGCCUCAGAACCCCCUCUCUGGAGCUCAGCAGUUCGUGGCAAAGGAGCCCCAG,0.166
GGUCGGCUCUACCAAGUAGAAUAUGCUUUUAAGGCUAUUAACCAGGGUGGCCUUACAUCAGCCGCUGUCAGAGGGAAAGACUGUGCAGUAAUUGUCACACAGAAGAAAGUACCUGACAAA,0.192
CAUGGACAGCAAGCCUUGGGUAACCGGACCAGGCCAAGGGUCUACAAUUCUCCAACAAACCGCUCCUCUACCCAGGAUUCUAUGGAGGUUGGCCACAGUCACCACUCCAUGACAUCCCUG,0.0439
GGCAUCGCGGGCUGUGGAACCCUACUAAUAUUGGAUCCAGAUGAAGCUGGGCUAAGGCUUUUCCGAAGCUUUGACUGGAAUGAUGGUUUGUUUGAUGUGACUUGGAGUGAGAACAACGAA,0.134
UCAUGGAACUUAUGUGUCAAAACAAAGGAACGGGCAGACUGUCCAUCCCAAGCCAGUUCAAUCCGAUGUAAAUUCAUACUGUUUUAAUUUUUUAUGCAAUCUGAUGAGUAGAUGGGCUCA,0.31
